Published values of several laboratories.
A part holds a random share of what one study measured. Substitutions count along the parent as printed.

Block 1
Target: RNA binding protein fox-1 homolog 2, RRM domain, GST-SBP tag (RBFOX2, Homo sapiens, UniProt O43251-10, residues 100-194)
Method: RNA Bind-n-Seq
Molecule type: RNA
Sample: in vitro
Concentration: 365 nM
Notes: natural RNA segment, single round, ends assumed
Reference: no-protein control
Direction: higher = stronger binding
All sequences stand within: GGGAGUUCUACAGUCCGACGAUC … UGGAAUUCUCGGGUGCCAA
Target sequence (chain): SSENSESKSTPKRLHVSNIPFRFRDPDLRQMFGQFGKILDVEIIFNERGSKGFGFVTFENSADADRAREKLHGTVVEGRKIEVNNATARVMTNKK
Strand	RBNS enrichment (R)
CCACCUUUAGUGUUUGAGCUUUGUCAUUGCUUGUCUCCCUGGCAUGUGCCAGUUAUAGACUGUCCAGCAUCCAAGACGUUUCGGUUAUGUCGGGUCCUCAGAUCGCCUCU	0.347
UGGAUUCUAUCCCAGACCCAGGUUUUCUAGUUCAGAAGACUAACCAGCUUAGUCAGAAGAUGGUUCCAUGGAAGAAAAAGGCCAAGGAGUUUGAAGAUUUUUCUUCUAGA	0.335
AGAACAAAACAAAACAAAACACCACAAACCAAAAACAUCUGGGCUAGCCAGGCAUGAUUGCAAUGUCUACAGGCCCAGUUCAUGAGAGGCAGAGACAGGAAGACCGCCGA	0.565
AAAUCUGAAGGUUAAUCCAAACUCACAUGUUUUAGCAUAUUUGAGAAAAAAAAACUACCUUCAAUAUCAGCCUUUUAAAUUUCAUGAAGAUUUUGGUGAGGAAUAAUAGU	0.482
CUGCCAGAAGUUCAUGGUCAGAUACUGUGACUAUCACUAUCUUGUUUCUGUGAUUGUCAUUAAAAAAAAAUUUACUGUUGUGAUAAGAAUUUUAUUUGUUUUGUUUAAAG	0.888
UGUUAGCUACCCAUAAGAAUGCUGUUUGCUGCAGUUCUGUGUCCUGUGCUUGGAUGCUUUUUAUAAGAGUUGUCAUUGUUGGAAAUUCUUAAAUAAAACUGAUUUAAAUA	3.14
UGUAAAUAGACAAAAGGAAACAUUUGCCAAAAGCGGCAGAUCUUUACUGAAAGAGAGAGCAGCUGUUAUGCAACAUAUAGAAAAAUGUAUAGAGGUUUGGACAGACCCGG	0.65
ACAUUCCAUCCUUCACCCCCUCCUCUGGCACAGGCCACCACUGCGGUGCUGUGCCUUCAGAUGGGAGGUGGGCGCGGUGGCCUCCUCCUUCCCUCCAGGACCUGCCCGUG	1.12
UUACUUCAUGAGAUCUUUGCUGGAAAUUAAUGAGAAGGGUCAGUGUUUGUGACUUAUGGGCUUAUUUUACAGACAAGAUGAGAGUUACCACUCUAAGAAAACAAACAGCA	1.62
GGAAGGAGCACCCAUGUCCACUGGAACGGGAGAACAAGCCUUCGGCAUCUACAGGGUUACUGUUUGCAUUUUCUACCCACAAGCAGAAGGAGACAGUGACAAUGGGCAGU	0.42
UGUGAAGUUUGAAGAUUUCUGAUUAGCUUUCAUCCGGUCUUCAUCUCUAUUUAUCUUAGAAGUUUAGUUUCCCCCACCUCCCCUACCUUCUCUAGGUGGACAUUAAACCA	0.668
UCUAUAUUGUGAUACAGAAACUGUCAACUUUUCGCUCUGUGAACUGUUUUUAAGACACUUUGAUGUUUUUAUGGGGUGGUUGGUAACCUCUCAGCCUAGCCUCUCCUCAC	0.401

Block 2
Target: Phosphate system positive regulatory protein PHO4, full length, GST-tagged (PHO4, Saccharomyces cerevisiae, UniProt P07270, residues 1-312)
Method: competition protein-binding microarray
Molecule type: double-stranded DNA, one strand shown
Sample: in vitro
Concentration: 2 µM
Notes: whole 60-bp probe, lowest competitor level
Together with: Cbf1 competitor, 0.05 µM
Direction: higher = stronger binding
All sequences stand within: … GTCTTGATTCGCTTGACGCTGCTG
Residues (chain): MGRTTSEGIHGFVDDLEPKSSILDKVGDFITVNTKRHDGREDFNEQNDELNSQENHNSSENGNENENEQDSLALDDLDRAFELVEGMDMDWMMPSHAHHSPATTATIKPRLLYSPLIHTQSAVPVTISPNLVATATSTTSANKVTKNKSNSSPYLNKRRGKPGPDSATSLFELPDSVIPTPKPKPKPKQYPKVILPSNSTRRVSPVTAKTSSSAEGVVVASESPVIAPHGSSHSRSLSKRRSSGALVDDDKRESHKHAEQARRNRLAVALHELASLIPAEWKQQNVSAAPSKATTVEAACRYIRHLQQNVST
Strand	fluorescence intensity [a.u.]
AAAGCGGTAATTTGCTCTGTGGGTGCAGATATCTAT	4070
TCGACACACCCGCCGCATGTGCGACAATTTCTTCGG	11600
CGGGGTTAAGTTTGGGTCGTGGGTGGCTTGCAGCAG	9270
GTCTTGTCTCATTGTCACCTAACTTTCCCCACTTCA	3990
AGAAGAGACGCAGCAAGCGTGGGTAAATGATAATGA	7150
GTCTTGTCTCATTGTTGAGTGGGTGTCCCCACTTCA	4940
CTTCTGTAAATTTCCCACGTGTTTTGACGCGCCCCG	17800
TATTGTTTTCGTTATCGCGTGGCAAGATATCTTGCG	8920
CACTTAAGCCTTGGCAACGTGTTGAACCAAGTCGAC	12200
CTTCTGTAAATTTTTCACGTGCCCTGACGCGCCCCG	13300
CTTCTGTAAATTTGTCACCACACTTGACGCGCCCCG	4790

Block 3
Target: UBE2C UBC core domain (UniProt O00762)
Method: yeast two-hybrid
Sample: yeast
Notes: mostly zero background
Reference: not given
Direction: higher = stronger interaction
B1: RFPL3 RING domain (UniProt O75679); chain MAALFQEASSCPVCSDYLEKPMSLECGCTVCLKCINSLQKEPHGEDLLCCCCSMVSQRNKIRP
B2: TRIM28 RING domain (UniProt Q13263); chain GAEALELLEHCGVCRERLRPEREPRLLPCLHSACSACLGPAAPAAANSSGDGGAAGDGTVVDCPVCKQQCFSKDIVE
B3: TRIM2 RING domain (UniProt Q9C040); chain VRQIDKQFLICSICLERYKNPKVLPCLHTFCERCLQNYIPAHSLTLSCPVCRQTSILPEKGV
B4: UBE4B RING domain (UniProt O95155); chain KNARAEIDYSDAPDEFRDPLMDTLMTDPVRLPSGTIMDRSIILRHLLNSPTDPFNRQTLTESMLEPVPELKEQIQAWMREKQNSDH
B5: TRIM34 RING domain (UniProt Q9BYJ4); chain ILLNVQEEVTCPICLELLTEPLSLDCGHSLCRACITVSNKEAVTSMGGKSSCPVCGISYSFEHLQA
B6: ARIH1 RING domain (UniProt Q9Y4X5); chain NTRSSAQDMPCQICYLNYPNSYFTGLECGHKFCMQCWSEYLTTKIMEEGMGQTISCPAHGCDILVDDNTVM
B7: RNF7 RING domain (UniProt Q9UBF6); chain AICRVQVMDACLRCQAENKQEDCVVVWGECNHSFHNCCMSLWVKQNNRCPLCQQDWVVQRIGK
Residues (chain): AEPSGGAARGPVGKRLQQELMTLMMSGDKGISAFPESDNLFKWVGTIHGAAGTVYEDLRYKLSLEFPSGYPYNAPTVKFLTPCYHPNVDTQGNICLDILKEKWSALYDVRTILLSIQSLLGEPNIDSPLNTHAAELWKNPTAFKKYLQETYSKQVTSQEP
Molecule	lacZ reporter activity
B1 (RFPL3 RING domain)	0
B2 (TRIM28 RING domain)	0
B3 (TRIM2 RING domain)	0
AAQLLEEKLTCAICLGLYQDPVTLPCGHNFCGACIRDWWDRCGKACPECREPFPDGAELR (TRIM65 RING domain (UniProt Q6PJ69))	0
B4 (UBE4B RING domain)	0
B5 (TRIM34 RING domain)	0
B6 (ARIH1 RING domain)	0
B7 (RNF7 RING domain)	0

Block 4
Target: Sal-like protein 4, full length isoform B (SALL4, Homo sapiens, UniProt Q9UJQ4-2, residues 1-616)
Method: universal PBM
Molecule type: double-stranded DNA, one strand shown
Sample: in vitro
Concentration: not given
Notes: 8-mer, flanks averaged, mean of replicates
Direction: higher = stronger binding
Construct (chain): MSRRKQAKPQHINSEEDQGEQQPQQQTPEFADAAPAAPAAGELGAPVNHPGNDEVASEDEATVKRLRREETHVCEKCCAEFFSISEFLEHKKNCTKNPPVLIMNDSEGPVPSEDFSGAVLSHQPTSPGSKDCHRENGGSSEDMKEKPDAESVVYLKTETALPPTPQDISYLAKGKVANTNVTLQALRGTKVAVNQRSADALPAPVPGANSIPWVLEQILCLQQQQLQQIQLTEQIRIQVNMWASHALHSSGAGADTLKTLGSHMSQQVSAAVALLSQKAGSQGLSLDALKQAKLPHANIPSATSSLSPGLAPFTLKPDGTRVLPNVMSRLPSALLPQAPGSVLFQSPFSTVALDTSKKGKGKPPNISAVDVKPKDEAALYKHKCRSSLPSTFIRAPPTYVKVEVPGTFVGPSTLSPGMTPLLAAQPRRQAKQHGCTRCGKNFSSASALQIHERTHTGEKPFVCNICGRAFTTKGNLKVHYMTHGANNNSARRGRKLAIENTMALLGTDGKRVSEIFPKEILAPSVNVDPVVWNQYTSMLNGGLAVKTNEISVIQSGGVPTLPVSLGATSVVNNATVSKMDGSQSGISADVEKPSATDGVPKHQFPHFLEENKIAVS
Strand	E-score
TAGAGGAA	0.108
CCTGTACC	-0.176
GACACGAA	-0.12
CCATTGCA	0.112
AGTGTCGC	-0.153
CAGCCAAC	-0.112
TAATGACA	0.224
ACGACAAC	-0.116
AGCCCGTC	-0.39
AAGCATGA	0.0397
CCACGTGA	-0.0706
AAATCAAA	0.312
TGCCAACA	-0.0524
CCCTTTAC	0.00585
GCGCATTA	0.139
TCAGTCAA	-0.00921
GGGGGACC	-0.405
CTAAACGC	-0.0399
AAAGATGC	-0.0717
CCGACCGC	-0.239

Block 5
Target: PABPC1L2, full length, GST fusion (mouse, UniProt A0ABA7IW68)
Method: RNAcompete
Molecule type: RNA
Sample: in vitro
Concentration: 20 nM
Notes: 7-mer, probes averaged, single round
Reference: mean of 7-mers
Direction: higher = stronger binding
Residues (chain): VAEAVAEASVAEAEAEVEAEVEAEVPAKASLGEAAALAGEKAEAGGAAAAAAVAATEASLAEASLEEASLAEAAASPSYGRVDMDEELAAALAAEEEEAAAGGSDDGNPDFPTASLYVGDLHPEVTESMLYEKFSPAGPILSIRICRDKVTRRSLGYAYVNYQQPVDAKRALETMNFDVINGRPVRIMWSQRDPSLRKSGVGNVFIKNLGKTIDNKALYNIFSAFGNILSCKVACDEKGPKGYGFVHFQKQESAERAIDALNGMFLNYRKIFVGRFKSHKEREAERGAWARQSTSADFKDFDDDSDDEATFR
Strand	7-mer Z-score
GCAUACG	-0.0645
CAGCAGU	0.095
UGGUACC	-0.26
UGAGGGU	-0.0283
GCUAGGC	-0.0971
AUUCGAU	-0.133
AGGAUCG	-0.0246
GUUGCCG	-0.235
CAGAUUA	-0.00289
CUGGAAU	-0.101
GUGGCUG	0.215
CCGUGCA	-0.0301
ACAGCUU	-0.153
UUUGGUG	-0.371
UGGACCA	0.0297
CGUGCGU	-0.318
CGCUGAU	-0.211
UACGAGA	0.166
GAUCGUG	-0.307

Block 6
Target: CCNB1, cyclin fold, Cln2 fusion (human)
Method: yeast growth competition, sequencing
Sample: yeast
Notes: weak parent motif
Reference: not given
Direction: higher = stronger binding
Starting sequence: PLK5 docking peptide (human); IFRKVGQRLLTQC
Change	normalised enrichment score
R8A	0.668
R3A	0.233
K4A	-0.0019
Q7A	0.628
L9A	0.434
C13A	0.273

Excerpt of the above (block 6):
Change	normalised enrichment score
R3A	0.233
K4A	-0.0019
Q7A	0.628
L9A	0.434
C13A	0.273
